Assay results pooled from the literature.
A part holds a random share of what one study measured. Changes are numbered by the printed parent chain.

Series 1 — observed: binding; method: radioligand binding; concentration: 10 µM
Target: D(2) dopamine receptor (DRD2, Homo sapiens, UniProt P14416)
Chain of UniProt P14416 (whole entry, looked up): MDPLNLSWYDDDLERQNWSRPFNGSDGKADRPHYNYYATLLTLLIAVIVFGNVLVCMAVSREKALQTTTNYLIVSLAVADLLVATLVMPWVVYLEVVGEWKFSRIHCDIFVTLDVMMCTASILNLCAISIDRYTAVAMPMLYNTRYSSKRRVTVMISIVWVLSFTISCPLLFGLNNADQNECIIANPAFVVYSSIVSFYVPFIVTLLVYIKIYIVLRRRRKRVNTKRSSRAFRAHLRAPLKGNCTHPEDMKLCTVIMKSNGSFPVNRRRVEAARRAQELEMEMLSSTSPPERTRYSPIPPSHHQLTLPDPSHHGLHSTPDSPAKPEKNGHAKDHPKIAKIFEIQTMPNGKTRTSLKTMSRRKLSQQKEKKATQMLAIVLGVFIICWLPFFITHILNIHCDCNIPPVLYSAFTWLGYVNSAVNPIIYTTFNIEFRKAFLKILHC
SMILES | inhibition [%]
CCCOc1ccc([C@H]2[C@H](C(=O)O)[C@@H](c3ccc4c(c3)OCO4)CN2CC(=O)Nc2c(CC)cccc2CC)cc1 | -11.9
CS(=O)(=O)NCC[C@H](NC(=O)c1cncc2c1cnn2-c1ccc(F)cc1)c1ccnc(S(C)(=O)=O)c1 | -5.26
O=C(O)c1cc(-c2ccc(C3CCNCC3)cc2)c2ccc(-c3ccc(C(F)(F)F)cc3)cc2c1 | -20.2
O=C1c2ccc(Nc3ccc(F)cc3F)cc2CCc2ccc(OC[C@H](O)CO)cc21 | 7.19
C[C@@]1(Cc2ccc(C#N)cc2)C(=O)N(c2cc(Cl)cc(Cl)c2)c2ncc(C(=O)NC3(c4nc(C5CCC5)no4)CC3)n21 | 16.4
CNC(=O)Nc1ccc2c(c1)[C@]1(CC2)OC(=O)N(CC(=O)N(Cc2ccc(F)cc2)[C@@H](C)C(F)(F)F)C1=O | -8.75
Nc1c(C(=O)NCc2ccc(C(=O)NCCCC3CCCCC3)cc2)cnn1-c1ccccc1 | 15
COc1cccc(CNC(=O)c2nc3scc(COCc4ccc(C(=O)O)cc4)c3c(=O)[nH]2)c1 | 7.09
CN1C(=O)[C@@H](N2CCc3cn(Cc4ccccc4)nc3C2=O)COc2ccccc21 | -5.46
Cc1nccc(COC(=O)N2C[C@@H]3[C@@H](CNC(=O)c4ccc5[nH]nnc5c4)[C@@H]3C2)n1 | -13.1

Series 2 — method: protein-binding microarray; molecule type: double-stranded DNA, one strand shown; matrix: in vitro; concentration: not given; direction: higher = stronger binding
Target: TATA-box-binding protein 1 (TBP1, Arabidopsis thaliana, UniProt P28147, residues 1-200, full length assumed)
Notes: k-mer, scored over probes, only values ≥0.25
Construct (chain): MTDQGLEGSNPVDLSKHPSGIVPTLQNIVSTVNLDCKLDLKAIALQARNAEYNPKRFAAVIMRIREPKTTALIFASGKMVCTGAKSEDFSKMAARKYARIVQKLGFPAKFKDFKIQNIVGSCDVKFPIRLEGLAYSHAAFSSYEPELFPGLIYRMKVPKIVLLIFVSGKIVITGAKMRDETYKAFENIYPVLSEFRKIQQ
Oligonucleotide | E-score
AGTTTTA | 0.289
ATAACCG | 0.264
AAAATGT | 0.266
CTTAAGC | 0.305
CTCTATA | 0.316
ACATTAA | 0.263
TAGTTAA | 0.292
ACTTTAT | 0.366

Series 3 — target: CCNB3, cyclin fold, Cln2 fusion (human); method: yeast growth competition, sequencing; matrix: yeast; notes: strong parent motif; reference: not given; direction: higher = stronger binding
Parent: TICRR docking peptide (human); TKVRRNLFNQELL; partner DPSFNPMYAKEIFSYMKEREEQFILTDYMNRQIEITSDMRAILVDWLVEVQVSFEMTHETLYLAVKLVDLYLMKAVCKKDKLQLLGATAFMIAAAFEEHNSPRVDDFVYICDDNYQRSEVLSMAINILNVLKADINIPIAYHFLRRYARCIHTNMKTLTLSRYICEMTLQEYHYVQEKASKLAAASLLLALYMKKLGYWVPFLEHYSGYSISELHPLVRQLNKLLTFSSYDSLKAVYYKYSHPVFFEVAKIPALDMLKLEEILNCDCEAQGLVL
Substitution | normalised enrichment score
TKVRRNLFNAELL [Q10A] | 0.26
TKVRRNLLNQELL [F8L] | 0.325
TAVRRNLFNQELL [K2A] | 2.29
TKARRNLFNQELL [V3A] | -0.118
TKVRRNLANQELL [F8A] | -0.096
TKVRRNLFNQEAL [L12A] | 0.86
TKVRRALFNQELL [N6A] | 0.611
TKVRRNLFAQELL [N9A] | 0.644

Mixed results — organism: Plasmodium berghei; mode: inhibitor; cells: Huh-7; strain: GFP-expressing sporozoites, liver stage; concentration: 10 µM; time: 24 h; reference: untreated control
SMILES | infection rate
NC(=O)c1ccc([N+](=O)[O-])cc1Cl | 104%
CN(C)CCc1c[nH]c2ccc(CS(=O)(=O)N3CCCC3)cc12 | 110%

Some of these lines once more (series 3):
Substitution | normalised enrichment score
TKVRRALFNQELL [N6A] | 0.611
TKVRRNLANQELL [F8A] | -0.096
TKARRNLFNQELL [V3A] | -0.118
TKVRRNLFNQEAL [L12A] | 0.86
